Assay results from different studies.
A part holds a random share of what one study measured. “And” joins repeats or separate records; there may be more than shown. pIC50: −log10 of the molar value.
Sequence of UniProt P25021 (whole entry, looked up): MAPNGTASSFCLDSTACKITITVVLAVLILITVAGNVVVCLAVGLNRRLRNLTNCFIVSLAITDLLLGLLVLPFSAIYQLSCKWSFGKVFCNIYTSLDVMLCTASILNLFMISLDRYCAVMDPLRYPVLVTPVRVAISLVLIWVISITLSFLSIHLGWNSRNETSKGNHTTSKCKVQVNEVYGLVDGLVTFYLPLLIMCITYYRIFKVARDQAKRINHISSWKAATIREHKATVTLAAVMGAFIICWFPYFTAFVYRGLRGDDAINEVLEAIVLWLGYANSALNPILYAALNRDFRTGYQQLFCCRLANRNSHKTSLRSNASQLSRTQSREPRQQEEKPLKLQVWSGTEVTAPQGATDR
Sequence of UniProt P35462 (whole entry, looked up): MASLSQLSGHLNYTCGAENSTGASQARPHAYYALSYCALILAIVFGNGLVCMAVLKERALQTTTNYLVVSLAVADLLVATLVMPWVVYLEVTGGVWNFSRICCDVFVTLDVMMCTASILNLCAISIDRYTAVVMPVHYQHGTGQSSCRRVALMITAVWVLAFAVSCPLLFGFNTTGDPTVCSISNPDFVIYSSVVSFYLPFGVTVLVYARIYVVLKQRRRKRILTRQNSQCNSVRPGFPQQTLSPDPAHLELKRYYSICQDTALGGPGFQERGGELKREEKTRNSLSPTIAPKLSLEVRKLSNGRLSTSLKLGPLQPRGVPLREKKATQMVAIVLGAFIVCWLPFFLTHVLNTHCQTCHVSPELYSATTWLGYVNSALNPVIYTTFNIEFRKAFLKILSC
Sequence of UniProt P35348 (whole entry, looked up): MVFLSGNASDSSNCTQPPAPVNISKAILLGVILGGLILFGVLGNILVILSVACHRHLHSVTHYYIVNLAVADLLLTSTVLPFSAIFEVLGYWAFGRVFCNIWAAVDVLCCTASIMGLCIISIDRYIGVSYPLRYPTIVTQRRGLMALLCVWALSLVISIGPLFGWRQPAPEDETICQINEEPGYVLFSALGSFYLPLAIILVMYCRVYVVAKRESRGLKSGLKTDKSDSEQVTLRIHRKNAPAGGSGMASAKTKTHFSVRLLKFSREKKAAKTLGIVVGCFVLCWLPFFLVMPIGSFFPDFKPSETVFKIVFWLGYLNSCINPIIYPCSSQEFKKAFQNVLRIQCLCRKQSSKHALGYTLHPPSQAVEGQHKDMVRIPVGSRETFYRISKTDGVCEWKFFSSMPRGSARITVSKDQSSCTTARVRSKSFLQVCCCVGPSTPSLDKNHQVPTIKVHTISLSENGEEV
Sequence of UniProt P08588 (whole entry, looked up): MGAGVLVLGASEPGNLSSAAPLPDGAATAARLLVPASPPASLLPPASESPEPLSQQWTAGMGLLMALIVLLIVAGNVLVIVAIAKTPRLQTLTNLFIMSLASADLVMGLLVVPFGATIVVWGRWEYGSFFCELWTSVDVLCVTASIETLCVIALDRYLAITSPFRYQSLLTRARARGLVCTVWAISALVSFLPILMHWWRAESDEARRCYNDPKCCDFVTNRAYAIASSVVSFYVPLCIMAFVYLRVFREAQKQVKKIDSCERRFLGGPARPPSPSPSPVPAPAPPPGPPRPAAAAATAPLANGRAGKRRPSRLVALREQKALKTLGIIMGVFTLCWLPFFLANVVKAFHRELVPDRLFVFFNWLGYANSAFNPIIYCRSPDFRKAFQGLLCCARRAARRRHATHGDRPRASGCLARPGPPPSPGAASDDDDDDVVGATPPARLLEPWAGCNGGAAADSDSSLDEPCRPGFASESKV
Sequence of UniProt P08173 (whole entry, looked up): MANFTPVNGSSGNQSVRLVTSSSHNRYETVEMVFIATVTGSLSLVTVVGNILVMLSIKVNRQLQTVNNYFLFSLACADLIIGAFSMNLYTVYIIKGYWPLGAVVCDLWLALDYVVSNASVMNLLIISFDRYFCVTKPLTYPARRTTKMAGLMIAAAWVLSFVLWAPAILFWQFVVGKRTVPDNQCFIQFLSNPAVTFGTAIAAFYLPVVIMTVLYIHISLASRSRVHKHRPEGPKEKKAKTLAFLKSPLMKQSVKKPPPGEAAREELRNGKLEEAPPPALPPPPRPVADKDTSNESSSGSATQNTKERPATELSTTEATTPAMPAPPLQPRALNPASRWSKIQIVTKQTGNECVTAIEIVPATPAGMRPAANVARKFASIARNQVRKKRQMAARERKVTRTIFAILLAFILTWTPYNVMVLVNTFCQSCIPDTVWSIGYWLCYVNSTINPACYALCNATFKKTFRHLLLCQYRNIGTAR
Sequence of UniProt P13945 (whole entry, looked up): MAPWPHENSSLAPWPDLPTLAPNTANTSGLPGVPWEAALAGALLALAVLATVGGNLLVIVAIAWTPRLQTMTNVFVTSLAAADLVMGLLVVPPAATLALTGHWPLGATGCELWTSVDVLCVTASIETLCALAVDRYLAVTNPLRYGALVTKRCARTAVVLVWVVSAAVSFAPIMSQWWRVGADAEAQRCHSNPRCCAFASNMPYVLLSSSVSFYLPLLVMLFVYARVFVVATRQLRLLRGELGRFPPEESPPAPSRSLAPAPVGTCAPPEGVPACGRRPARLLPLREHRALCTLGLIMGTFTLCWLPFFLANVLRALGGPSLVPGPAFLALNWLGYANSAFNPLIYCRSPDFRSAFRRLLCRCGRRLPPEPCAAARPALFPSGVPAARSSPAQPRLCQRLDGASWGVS
Sequence of UniProt P21728 (whole entry, looked up): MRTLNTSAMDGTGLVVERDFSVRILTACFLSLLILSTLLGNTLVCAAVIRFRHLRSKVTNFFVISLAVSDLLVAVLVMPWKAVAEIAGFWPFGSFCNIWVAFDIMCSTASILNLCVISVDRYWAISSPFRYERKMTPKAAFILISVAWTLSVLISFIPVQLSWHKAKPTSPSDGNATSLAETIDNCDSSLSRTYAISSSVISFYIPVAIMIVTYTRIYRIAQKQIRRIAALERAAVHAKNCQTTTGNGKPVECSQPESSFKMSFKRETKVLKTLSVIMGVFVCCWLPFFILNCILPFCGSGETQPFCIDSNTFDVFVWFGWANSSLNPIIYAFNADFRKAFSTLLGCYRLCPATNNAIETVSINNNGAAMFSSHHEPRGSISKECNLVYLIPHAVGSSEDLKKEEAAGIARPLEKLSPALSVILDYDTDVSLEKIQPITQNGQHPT
Sequence of UniProt P18089 (whole entry, looked up): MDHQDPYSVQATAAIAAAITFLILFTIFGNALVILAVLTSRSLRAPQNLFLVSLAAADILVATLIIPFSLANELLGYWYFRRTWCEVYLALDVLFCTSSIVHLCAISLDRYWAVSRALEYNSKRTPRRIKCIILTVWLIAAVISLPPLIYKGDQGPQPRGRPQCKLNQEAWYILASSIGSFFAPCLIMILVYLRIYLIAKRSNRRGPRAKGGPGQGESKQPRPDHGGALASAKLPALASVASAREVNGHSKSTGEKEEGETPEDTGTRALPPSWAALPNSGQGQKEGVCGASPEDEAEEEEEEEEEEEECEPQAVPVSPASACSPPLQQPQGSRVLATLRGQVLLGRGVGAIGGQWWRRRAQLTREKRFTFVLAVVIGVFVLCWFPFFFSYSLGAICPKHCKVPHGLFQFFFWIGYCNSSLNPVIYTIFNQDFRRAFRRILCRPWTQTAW

Sample 1
SMILES: C=CCc1ccc(O)c(-c2ccc(O)c(CC=C)c2)c1
Observed: chloride current
Method: whole-cell voltage clamp
ANO1 del476-501/R631I: Anoctamin-1 (ANO1, Homo sapiens, UniProt Q5XXA6, del476-501/R631I)
Sequence of UniProt Q5XXA6 (whole entry, unmodified, looked up): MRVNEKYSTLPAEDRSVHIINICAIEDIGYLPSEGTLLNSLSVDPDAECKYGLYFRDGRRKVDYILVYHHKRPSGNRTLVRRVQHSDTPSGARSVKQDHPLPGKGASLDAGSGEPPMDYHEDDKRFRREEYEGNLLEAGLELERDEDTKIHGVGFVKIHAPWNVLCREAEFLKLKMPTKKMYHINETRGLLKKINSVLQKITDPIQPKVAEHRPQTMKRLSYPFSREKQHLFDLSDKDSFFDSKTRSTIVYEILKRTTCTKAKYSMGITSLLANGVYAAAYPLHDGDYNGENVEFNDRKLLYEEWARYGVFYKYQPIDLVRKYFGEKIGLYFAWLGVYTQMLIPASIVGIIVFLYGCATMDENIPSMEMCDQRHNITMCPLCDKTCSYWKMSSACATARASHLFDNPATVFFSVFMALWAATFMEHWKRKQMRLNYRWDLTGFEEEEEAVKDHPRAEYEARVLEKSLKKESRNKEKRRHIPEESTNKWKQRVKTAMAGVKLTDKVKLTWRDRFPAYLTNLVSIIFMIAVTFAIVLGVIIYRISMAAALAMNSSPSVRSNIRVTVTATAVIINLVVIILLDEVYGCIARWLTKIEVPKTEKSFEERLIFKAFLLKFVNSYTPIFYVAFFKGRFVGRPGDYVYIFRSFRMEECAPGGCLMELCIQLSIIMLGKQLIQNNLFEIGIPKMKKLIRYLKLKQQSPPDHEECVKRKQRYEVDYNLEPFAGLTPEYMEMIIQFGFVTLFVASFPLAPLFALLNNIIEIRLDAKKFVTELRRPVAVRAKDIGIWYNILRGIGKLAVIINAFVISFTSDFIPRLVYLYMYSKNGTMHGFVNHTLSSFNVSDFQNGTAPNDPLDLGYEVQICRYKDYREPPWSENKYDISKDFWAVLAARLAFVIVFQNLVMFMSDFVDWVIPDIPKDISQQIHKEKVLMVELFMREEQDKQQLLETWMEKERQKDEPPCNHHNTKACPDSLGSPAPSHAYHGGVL
| target | mode | concentration | setting | together with | pIC50 |
| --- | --- | --- | --- | --- | --- |
| Anoctamin-1 (ANO1, Homo sapiens, UniProt Q5XXA6, del476-501/F628Y) | inhibitor | 60 mV holding voltage |  |  | 4.64 |
| Anoctamin-1 (ANO1, Homo sapiens, UniProt Q5XXA6, del476-501/F807Y) | inhibitor | 20 mV holding voltage |  |  | 5.02 |
| ANO1 del476-501/R631I | inhibitor |  | R605I mutant at 40 mV |  | 4.63 |
| Anoctamin-1 (ANO1, Homo sapiens, UniProt Q5XXA6, D383A/del476-501) |  |  | membrane voltage 40 mV |  | 5.36 |
| Anoctamin-1 (ANO1, Homo sapiens, UniProt Q5XXA6, del476-501/R561A) |  |  | membrane voltage 80 mV |  | 5.17 |
| ANO1 del476-501/R631I | inhibitor |  | R605I mutant at 100 mV |  | 4.49 |
| Anoctamin-1 (ANO1, Homo sapiens, UniProt Q5XXA6, del476-501/F623A) |  |  | membrane voltage -20 mV |  | 5.02 |
| Anoctamin-1 (ANO1, Homo sapiens, UniProt Q5XXA6, del476-501) | inhibitor |  | 60 mV voltage | 300 nM Ca2+ | 5.40 |
| Anoctamin-1 (ANO1, Homo sapiens, UniProt Q5XXA6, del476-501/F628W) | inhibitor | 20 mV holding voltage |  |  | 4.91 |

Sample 2
Compound: CCS(=O)(=O)c1cc2cc(C[C@](O)(CC(C)(C)c3ccc(F)cc3C(N)=O)C(F)(F)F)[nH]c2cn1
Observed: ligand displacement
Concentration: 10 µM
| target | inhibition [%] |
| --- | --- |
| ADRB1 (Homo sapiens, UniProt P08588) | -14.1 |
| ADRA2B (Homo sapiens, UniProt P18089) | 24.7 |
| HRH2 (Homo sapiens, UniProt P25021) | 12.3 |
| DRD3 (Homo sapiens, UniProt P35462) | 7.81 |
| ADRB3 (Homo sapiens, UniProt P13945) | 13 |
| CHRM4 (Homo sapiens, UniProt P08173) | 13.1 |
| DRD1 (Homo sapiens, UniProt P21728) | -20.9 |
| ADRA1A (Homo sapiens, UniProt P35348) | -0.31 |

Sample 3
Species: human
Sample: microsomes or S9
Concentration: 2 µM
Time: 0.5 h
| SMILES | remaining compound [%] |
| --- | --- |
| Cc1nnc(N2CCc3nn(C)c(=O)cc3C2)c(C#N)c1C | > 100 |
| Cc1ccc(C(C)NS(=O)(=O)c2ccc(F)c(F)c2)c(C)c1 (stereo not shown) | < 1 |
| Cc1cc(O)c(C(c2ccco2)c2c(O)cc(C)n(C)c2=O)c(=O)n1C | 87.7 |
| Cc1cc(C)n(-c2nc(CCNC(=O)CCn3ccc(=O)[nH]c3=O)cs2)n1 | > 99 |
| Nc1ccc(C(=O)Nc2nc(-c3ccc(F)cc3F)cs2)cc1 | 78 |
| CC(C)(C)C(=O)Nc1cc(NC(=O)C(C)(C)C)cc(C(=O)Nc2c[nH]c(=O)[nH]c2=O)c1 | 0.685 |
| CC(Nc1oc(/C=C/c2cccs2)nc1C#N)c1ccccc1 (stereo not shown) | 2.44 |

Sample 4
Compound: CC(C)C[C@@H]1NC(=O)[C@@H](N(C)C(=O)[C@H](CC2CCC2)NC(=O)[C@@H]2C[C@@H](F)CN2C(=O)C2(C(F)(F)F)CC(F)(F)C2)CCCCNC(=O)C2(CC2)NC(=O)[C@H](Cc2cc(Cl)ccc2Cl)N(C)C1=O
Method: PI flow cytometry
Time: 24 h
| cell line | concentration | S phase cells |
| --- | --- | --- |
| A549 | 2000 nM | 17.3% and 26.2% |
| NCI-H82 | 20 nM | 36.4% and 30.4% and 36.8% |
| NCI-H1299 | 20 nM | 14.2% and 17.8% and 19.6% |
| NCI-H446 | 20 nM | 23.8% and 25.5% and 23.3% |
| HCC4006 | 200 nM | 31.9% and 32.4% and 20.8% |
| NCI-H446 | 200 nM | 17.1% and 26.8% and 19.4% |
| A549 | 20 nM | 19.9% and 15.8% and 24.3% |

A few entries again (sample 4):
| cell line | concentration | S phase cells |
| --- | --- | --- |
| NCI-H446 | 200 nM | 17.1% and 26.8% and 19.4% |
| A549 | 2000 nM | 17.3% and 26.2% |
| NCI-H446 | 20 nM | 23.8% and 25.5% and 23.3% |
